Measurements collected from several papers.
Numbered parts are unrelated; each lists some results of a single study.
UniProt Q96RG2, sequence (whole entry, looked up): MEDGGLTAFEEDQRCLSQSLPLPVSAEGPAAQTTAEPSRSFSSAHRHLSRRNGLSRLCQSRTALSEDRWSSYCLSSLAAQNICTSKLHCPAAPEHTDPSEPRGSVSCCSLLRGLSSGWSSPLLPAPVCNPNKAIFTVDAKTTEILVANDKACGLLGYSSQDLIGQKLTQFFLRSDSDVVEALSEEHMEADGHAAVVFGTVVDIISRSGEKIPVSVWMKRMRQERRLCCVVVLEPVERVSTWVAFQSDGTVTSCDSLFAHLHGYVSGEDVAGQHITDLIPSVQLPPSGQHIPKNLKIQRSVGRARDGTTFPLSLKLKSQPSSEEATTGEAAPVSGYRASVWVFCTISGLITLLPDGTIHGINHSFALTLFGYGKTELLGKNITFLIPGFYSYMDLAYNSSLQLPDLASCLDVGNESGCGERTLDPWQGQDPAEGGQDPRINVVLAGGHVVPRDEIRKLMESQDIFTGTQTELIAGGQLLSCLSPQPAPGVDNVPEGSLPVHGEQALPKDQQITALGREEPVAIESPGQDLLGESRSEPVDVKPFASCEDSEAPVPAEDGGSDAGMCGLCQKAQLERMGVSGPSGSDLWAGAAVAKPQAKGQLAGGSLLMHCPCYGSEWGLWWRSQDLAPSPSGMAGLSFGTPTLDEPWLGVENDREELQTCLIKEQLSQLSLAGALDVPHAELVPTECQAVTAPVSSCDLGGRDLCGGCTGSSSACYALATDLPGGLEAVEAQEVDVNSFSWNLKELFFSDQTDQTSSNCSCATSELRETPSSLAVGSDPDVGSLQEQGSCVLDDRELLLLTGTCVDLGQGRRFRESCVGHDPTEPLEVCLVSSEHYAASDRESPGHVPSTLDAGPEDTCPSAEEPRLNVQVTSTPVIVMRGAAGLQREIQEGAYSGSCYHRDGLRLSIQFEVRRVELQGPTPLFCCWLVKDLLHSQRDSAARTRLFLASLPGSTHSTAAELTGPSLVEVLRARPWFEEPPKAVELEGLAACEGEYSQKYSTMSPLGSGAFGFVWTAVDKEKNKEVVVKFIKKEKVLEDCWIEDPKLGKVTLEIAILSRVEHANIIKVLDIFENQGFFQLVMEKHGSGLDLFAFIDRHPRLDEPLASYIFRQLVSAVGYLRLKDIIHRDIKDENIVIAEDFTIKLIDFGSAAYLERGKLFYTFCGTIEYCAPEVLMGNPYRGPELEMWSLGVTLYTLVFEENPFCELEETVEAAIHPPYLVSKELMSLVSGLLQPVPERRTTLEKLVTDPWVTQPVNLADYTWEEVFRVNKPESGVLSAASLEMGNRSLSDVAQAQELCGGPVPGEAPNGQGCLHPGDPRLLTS
UniProt P51817, sequence (whole entry, looked up): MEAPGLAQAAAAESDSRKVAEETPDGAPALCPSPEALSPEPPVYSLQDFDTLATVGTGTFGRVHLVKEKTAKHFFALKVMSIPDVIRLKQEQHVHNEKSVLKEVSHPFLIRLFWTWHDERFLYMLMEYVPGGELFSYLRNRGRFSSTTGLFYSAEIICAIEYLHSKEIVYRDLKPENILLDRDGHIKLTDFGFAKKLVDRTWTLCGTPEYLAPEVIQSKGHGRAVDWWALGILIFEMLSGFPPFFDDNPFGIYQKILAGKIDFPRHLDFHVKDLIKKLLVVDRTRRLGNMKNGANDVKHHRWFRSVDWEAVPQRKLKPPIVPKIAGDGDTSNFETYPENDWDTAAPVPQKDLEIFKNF
UniProt Q12851, sequence (whole entry, looked up): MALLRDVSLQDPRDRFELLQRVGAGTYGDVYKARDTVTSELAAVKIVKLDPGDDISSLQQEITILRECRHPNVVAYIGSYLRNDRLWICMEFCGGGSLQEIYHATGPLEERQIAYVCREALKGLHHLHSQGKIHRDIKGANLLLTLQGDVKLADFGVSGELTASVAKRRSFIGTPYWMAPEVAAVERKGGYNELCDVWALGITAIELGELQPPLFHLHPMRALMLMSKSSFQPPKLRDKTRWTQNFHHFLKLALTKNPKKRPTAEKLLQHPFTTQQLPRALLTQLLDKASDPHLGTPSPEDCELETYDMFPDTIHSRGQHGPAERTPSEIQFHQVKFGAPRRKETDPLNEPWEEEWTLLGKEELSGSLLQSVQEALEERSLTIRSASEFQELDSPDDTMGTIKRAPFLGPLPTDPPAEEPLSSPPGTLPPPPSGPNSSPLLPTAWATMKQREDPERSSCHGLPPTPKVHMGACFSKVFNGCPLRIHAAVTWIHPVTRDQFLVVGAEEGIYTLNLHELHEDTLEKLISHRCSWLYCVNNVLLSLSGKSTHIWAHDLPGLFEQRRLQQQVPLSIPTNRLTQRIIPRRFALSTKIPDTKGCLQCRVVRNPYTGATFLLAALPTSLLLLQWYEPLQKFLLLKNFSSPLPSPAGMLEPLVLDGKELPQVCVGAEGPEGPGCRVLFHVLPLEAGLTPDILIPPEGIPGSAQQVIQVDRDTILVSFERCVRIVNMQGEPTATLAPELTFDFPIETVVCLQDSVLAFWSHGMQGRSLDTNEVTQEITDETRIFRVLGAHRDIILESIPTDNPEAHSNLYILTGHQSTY
UniProt Q52WX2, sequence (whole entry, looked up): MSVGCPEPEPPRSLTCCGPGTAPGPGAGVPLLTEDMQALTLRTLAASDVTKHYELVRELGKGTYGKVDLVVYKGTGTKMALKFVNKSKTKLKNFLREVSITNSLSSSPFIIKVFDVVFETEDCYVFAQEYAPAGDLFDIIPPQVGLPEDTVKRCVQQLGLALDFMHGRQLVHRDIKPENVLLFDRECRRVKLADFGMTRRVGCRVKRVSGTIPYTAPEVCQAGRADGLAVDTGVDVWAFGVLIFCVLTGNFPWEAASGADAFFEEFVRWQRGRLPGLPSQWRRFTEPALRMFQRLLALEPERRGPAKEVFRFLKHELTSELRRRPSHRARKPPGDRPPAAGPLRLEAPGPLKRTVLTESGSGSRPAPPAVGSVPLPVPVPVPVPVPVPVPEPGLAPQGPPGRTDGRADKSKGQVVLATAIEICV
UniProt Q9NRM7, sequence (whole entry, looked up): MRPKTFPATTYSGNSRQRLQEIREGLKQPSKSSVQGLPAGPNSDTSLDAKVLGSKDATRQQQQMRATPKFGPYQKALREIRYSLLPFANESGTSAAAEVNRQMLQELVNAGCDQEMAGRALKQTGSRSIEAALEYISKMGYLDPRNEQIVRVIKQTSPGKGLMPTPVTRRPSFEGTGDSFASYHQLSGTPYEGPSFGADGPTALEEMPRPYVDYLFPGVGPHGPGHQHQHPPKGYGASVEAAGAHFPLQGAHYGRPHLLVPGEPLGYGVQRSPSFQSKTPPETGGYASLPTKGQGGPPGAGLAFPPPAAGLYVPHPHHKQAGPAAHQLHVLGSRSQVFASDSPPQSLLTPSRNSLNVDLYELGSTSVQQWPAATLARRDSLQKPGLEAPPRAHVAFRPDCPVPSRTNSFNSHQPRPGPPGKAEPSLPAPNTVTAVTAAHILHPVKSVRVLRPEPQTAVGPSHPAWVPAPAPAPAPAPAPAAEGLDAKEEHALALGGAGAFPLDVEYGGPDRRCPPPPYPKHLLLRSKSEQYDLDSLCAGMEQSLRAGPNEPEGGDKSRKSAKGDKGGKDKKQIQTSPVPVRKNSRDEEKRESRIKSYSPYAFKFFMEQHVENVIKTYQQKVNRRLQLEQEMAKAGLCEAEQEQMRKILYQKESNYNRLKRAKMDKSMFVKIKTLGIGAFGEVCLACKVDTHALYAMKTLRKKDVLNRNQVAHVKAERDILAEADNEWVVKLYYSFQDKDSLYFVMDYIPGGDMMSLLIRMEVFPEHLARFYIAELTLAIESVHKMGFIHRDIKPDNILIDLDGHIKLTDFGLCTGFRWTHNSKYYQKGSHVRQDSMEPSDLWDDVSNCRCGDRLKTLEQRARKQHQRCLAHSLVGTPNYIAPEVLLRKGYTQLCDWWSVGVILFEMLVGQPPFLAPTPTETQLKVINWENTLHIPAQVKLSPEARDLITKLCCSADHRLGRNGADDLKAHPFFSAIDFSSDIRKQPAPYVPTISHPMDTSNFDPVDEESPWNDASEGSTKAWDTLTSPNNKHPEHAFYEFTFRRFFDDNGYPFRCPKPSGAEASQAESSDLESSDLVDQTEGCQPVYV
UniProt Q9BWU1, sequence (whole entry, looked up): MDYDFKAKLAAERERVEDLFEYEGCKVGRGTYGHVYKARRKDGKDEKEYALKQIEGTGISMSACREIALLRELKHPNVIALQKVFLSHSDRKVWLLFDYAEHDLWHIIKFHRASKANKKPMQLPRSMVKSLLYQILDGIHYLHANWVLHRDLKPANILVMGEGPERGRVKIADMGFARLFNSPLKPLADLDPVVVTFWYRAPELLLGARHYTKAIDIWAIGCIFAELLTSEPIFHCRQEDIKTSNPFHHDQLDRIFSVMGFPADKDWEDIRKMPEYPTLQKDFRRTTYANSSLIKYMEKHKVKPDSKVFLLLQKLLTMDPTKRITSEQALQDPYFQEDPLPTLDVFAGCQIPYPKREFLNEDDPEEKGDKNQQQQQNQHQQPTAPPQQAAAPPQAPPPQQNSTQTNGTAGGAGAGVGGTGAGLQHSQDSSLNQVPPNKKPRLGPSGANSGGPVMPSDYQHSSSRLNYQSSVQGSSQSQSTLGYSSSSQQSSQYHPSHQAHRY

Block 1
Structure (SMILES): Cc1sc(C(=O)NC2COC2)cc1-n1cc(NC(=O)Nc2c(F)cccc2Cl)cn1
Tested at: 10 µM
It gave 107% for remaining activity (Cell division cycle 7-related protein kinase, with DBF4 (CDC7, Homo sapiens, UniProt O00311); kinase activity, kinase panel profiling).
For MAP3K9 (Homo sapiens, UniProt P80192); enzyme activity; baseline: untreated control: remaining activity read 87.1%.
It gave 97.7% for remaining activity (MAP3K7 (Homo sapiens, UniProt O43318); enzyme activity; baseline: untreated control).
The remaining activity was 89.7% (GRK6 (Homo sapiens, UniProt P43250); enzyme activity; baseline: untreated control).
For EPHA8 (Homo sapiens, UniProt P29322); enzyme activity; baseline: untreated control: remaining activity read 90.4%.
For LATS2 (Homo sapiens, UniProt Q9NRM7); enzyme activity; baseline: untreated control: remaining activity read 94.4%.
RPS6KA5 (Homo sapiens, UniProt O75582); enzyme activity; baseline: untreated control — remaining activity: 104%.
Cyclin-dependent kinase 19, with cyclin C (CDK19, Homo sapiens, UniProt Q9BWU1); enzyme activity; baseline: untreated control — remaining activity: 96.8%.
It gave 86.4% for remaining activity (PBK (Homo sapiens, UniProt Q96KB5); enzyme activity; baseline: untreated control).
MAP3K10 (Homo sapiens, UniProt Q02779); enzyme activity; baseline: untreated control — remaining activity: 88.5%.
For WNK1 (Homo sapiens, UniProt Q9H4A3); enzyme activity; baseline: untreated control: remaining activity read 87.3%.
It gave 98.1% for remaining activity (Cyclin-dependent kinase 2, with cyclin A (CDK2, Homo sapiens, UniProt P24941); enzyme activity; baseline: untreated control).
The remaining activity was 106% (GRK2 (Homo sapiens, UniProt P25098); enzyme activity; baseline: untreated control).
DCLK2 (Homo sapiens, UniProt Q8N568); enzyme activity; baseline: untreated control — remaining activity: 105%.
The remaining activity was 92.9% (PASK (Homo sapiens, UniProt Q96RG2); enzyme activity; baseline: untreated control).
It gave 116% for remaining activity (CAMKK1 (Homo sapiens, UniProt Q8N5S9); enzyme activity; baseline: untreated control).

Block 2
Structure (SMILES): N#CC1(c2ccccn2)CCN(Cc2cc(C(=O)N3CCCC3)c(=O)n3ccccc23)CC1
Technique: competition with immobilised ligand
Tested at: 1 µM
ACVR1B (Homo sapiens, UniProt P36896); cell-free assay — remaining binding: 69%.
It gave 100% for remaining binding (MAPKAPK5 (Homo sapiens, UniProt Q8IW41); cell-free assay).
The remaining binding was 100% (TEC (Homo sapiens, UniProt P42680); cell-free assay).
It gave 91% for remaining binding (CSNK1A1L (Homo sapiens, UniProt Q8N752); cell-free assay).
For CDC42BPB (Homo sapiens, UniProt Q9Y5S2); cell-free assay: remaining binding read 63%.
It gave 98% for remaining binding (CSNK2A2 (Homo sapiens, UniProt P19784); cell-free assay).
For SBK1 (Homo sapiens, UniProt Q52WX2); cell-free assay: remaining binding read 89%.
It gave 76% for remaining binding (MAPK11 (Homo sapiens, UniProt Q15759); cell-free assay).
The remaining binding was 94% (WNK3 (Homo sapiens, UniProt Q9BYP7); cell-free assay).
The remaining binding was 100% (ERN1 (Homo sapiens, UniProt O75460); cell-free assay).
It gave 95% for remaining binding (STK10 (Homo sapiens, UniProt O94804); cell-free assay).
For PRKX (Homo sapiens, UniProt P51817); cell-free assay: remaining binding read 96%.
It gave 92% for remaining binding (Tyrosine-protein kinase ABL1, phosphorylated (ABL1, Homo sapiens, UniProt P00519, Y253F); cell-free assay).
The remaining binding was 91% (WEE2 (Homo sapiens, UniProt P0C1S8); cell-free assay).
It gave 96% for remaining binding (MAP4K2 (Homo sapiens, UniProt Q12851); cell-free assay).
For MAP3K15 (Homo sapiens, UniProt Q6ZN16); cell-free assay: remaining binding read 100%.
The remaining binding was 100% (CAMKK2 (Homo sapiens, UniProt Q96RR4); cell-free assay).
The remaining binding was 93% (CDK11A (Homo sapiens, UniProt Q9UQ88); cell-free assay).
FLT3 (Homo sapiens, UniProt P36888, K663Q); binding — remaining binding: 30%.
For VRK2 (Homo sapiens, UniProt Q86Y07); cell-free assay: remaining binding read 100%.
It gave 100% for remaining binding (IRAK3 (Homo sapiens, UniProt Q9Y616); cell-free assay).
It gave 100% for remaining binding (CDK14 (Homo sapiens, UniProt O94921); cell-free assay).
For CAMK2B (Homo sapiens, UniProt Q13554); cell-free assay: remaining binding read 89%.
The remaining binding was 100% (NEK6 (Homo sapiens, UniProt Q9HC98); cell-free assay).
MKNK1 (Homo sapiens, UniProt Q9BUB5); cell-free assay — remaining binding: 100%.

Block 3
Target: Serine/threonine-protein kinase Nek7 (NEK7, Homo sapiens, UniProt Q8TDX7)
Effect on: enzyme activity
Action: inhibitor
Tested at: 0.5 µM
Baseline: control
Residues (Q8TDX7 1-302): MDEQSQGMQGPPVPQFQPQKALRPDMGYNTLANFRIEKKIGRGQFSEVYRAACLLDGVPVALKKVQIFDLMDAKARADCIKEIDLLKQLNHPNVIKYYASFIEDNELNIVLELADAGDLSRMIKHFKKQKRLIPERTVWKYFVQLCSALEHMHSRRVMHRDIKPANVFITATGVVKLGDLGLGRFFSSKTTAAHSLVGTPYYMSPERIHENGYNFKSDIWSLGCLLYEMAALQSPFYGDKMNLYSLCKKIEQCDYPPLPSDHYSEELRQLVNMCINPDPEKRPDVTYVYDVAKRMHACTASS
`c1ccc2c(-c3ccncc3)c[nH]c2c1` gave a remaining activity of 104%.
`Cc1ccc(S(=O)(=O)/C=C/C#N)cc1` has a remaining activity of 93.4%.
The remaining activity of `Cc1cc(Nc2cc(N3CCN(C)CC3)nc(Sc3ccc(NC(=O)C4CC4)cc3)n2)[nH]n1` is reported as 92.8%.
`COc1ccc2c(c1)c(C1=C(c3c[nH]c4ccccc34)C(=O)NC1=O)cn2CCCN(C)C` gave a remaining activity of 99.1%.
`CN(C)S(=O)(=O)c1ccc2c(c1)/C(=C/c1cc3c([nH]1)CCCC3)C(=O)N2` has a remaining activity of 103%.
`Oc1cccc(-c2nc(N3CCOCC3)c3oc4ncccc4c3n2)c1` has a remaining activity of 97.3%.
With `O=c1cc(N2CCOCC2)oc2c(-c3ccccc3)cccc12` the remaining activity was 92.1%.
With `O=C1NC(=O)c2c1c1c3ccccc3[nH]c1c1[nH]c3cc(Br)ccc3c21` the remaining activity was 96.8%.
With `c1ccc(-c2n[nH]c3c2oc2ccccc23)cc1` the remaining activity was 105%.
`O=C1Nc2ccccc2/C1=C\c1c(Cl)[nH]c2ccccc12` gave a remaining activity of 97.6%.
`N#Cc1cnc2cnc(NCc3cccnc3)cc2c1Nc1ccc(F)c(Cl)c1` has a remaining activity of 102%.
The remaining activity of `O=C1Cc2c([nH]c3ccc(Br)cc23)-c2ccccc2N1` is reported as 94.3%.
For `CCCNC(=O)Nc1ccc(Oc2ncnc3cc(OC)c(OC)cc23)cc1Cl`, the remaining activity was 103%.
For `O=Nc1c(-c2c(O)[nH]c3cc(Br)ccc23)[nH]c2ccccc12`, the remaining activity was 103%.
`COc1ccc(COc2ccc(Cc3cnc(N)nc3N)cc2OC)cc1` has a remaining activity of 100%.
`CN1CCN(c2ccc3nc(-c4c(N)c5c(F)cccc5[nH]c4=O)[nH]c3c2)CC1` has a remaining activity of 91.1%.
`O=C1Nc2ccc(Br)cc2/C1=C/c1cc2c([nH]1)CCCC2` has a remaining activity of 103%.
For `O=C(c1cc2cc(O)ccc2[nH]1)c1cc2cc(O)ccc2[nH]1`, the remaining activity was 101%.
With `COc1cccc(-c2cc(=O)c3ccccc3o2)c1N` the remaining activity was 94.7%.
The remaining activity of `O=C1NC(=O)c2c1c1c3ccccc3[nH]c1n1cncc21` is reported as 80.3%.

Block 4
Target: Calcium/calmodulin-dependent protein kinase type II subunit alpha (CAMK2A, Homo sapiens, UniProt Q9UQM7)
UniProt Q9UQM7, sequence (whole entry, looked up): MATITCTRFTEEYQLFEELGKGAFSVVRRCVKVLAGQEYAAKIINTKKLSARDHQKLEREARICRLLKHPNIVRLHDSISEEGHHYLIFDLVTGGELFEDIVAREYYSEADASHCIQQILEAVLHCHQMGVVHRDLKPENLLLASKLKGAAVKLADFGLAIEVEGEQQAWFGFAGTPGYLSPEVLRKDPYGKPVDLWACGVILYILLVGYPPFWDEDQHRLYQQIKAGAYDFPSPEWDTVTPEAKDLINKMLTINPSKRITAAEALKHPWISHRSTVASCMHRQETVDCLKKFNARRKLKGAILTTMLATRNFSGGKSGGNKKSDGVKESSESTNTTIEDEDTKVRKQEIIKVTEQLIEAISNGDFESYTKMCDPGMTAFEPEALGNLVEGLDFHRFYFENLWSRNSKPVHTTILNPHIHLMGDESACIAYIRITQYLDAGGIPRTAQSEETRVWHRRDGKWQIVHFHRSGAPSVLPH
Effect on: enzyme activity
Action: inhibitor
Tested at: 10 µM
`COc1c(O[C@@H]2O[C@H](C(=O)O)[C@@H](O)[C@H](O)[C@H]2O)cc2oc(-c3ccccc3)cc(=O)c2c1O` gave an inhibition of -4%.
For `Oc1ccc(/C=C/c2cc(O)cc(O)c2)cc1`, the inhibition was 28%.
`CC(C)CC(N)=O` has an inhibition of -22%.
`CCN1CCN(c2cc(-c3ccc(F)cc3)c3c(n2)CCCCCC3)CC1` gave an inhibition of -5%.
`CC(=O)CO` has an inhibition of -14%.
With `CCCCOC(=O)/C=C\C(=O)OCCCC` the inhibition was 8%.
`Cc1ccccc1C=O` gave an inhibition of -20%.
`CC(C)C[C@H](N)C(=O)N[C@@H](Cc1ccccc1)C(=O)O` gave an inhibition of 18%.
For `O=c1c2c3c(ccc2cc2n1CCc1cc4c(cc1-2)OCO4)OCO3`, the inhibition was -20%.
The inhibition of `O=C(O)c1cccc(-c2noc(-c3ccccc3F)n2)c1` is reported as 3%.
With `CCCCCCCCCCCCCCCCCCCCCCCCCCCC(=O)O` the inhibition was -5%.
The inhibition of `CC1(C)CC[C@]2(C(=O)O[C@@H]3O[C@H](CO)[C@@H](O)[C@H](O)[C@H]3O)CC[C@]3(C)C(=CC[C@@H]4[C@@]5(C)CC[C@H](O[C@@H]6O[C@H](CO)[C@@H](O)[C@H](O[C@@H]7O[C@H](CO)[C@@H](O)[C@H](O)[C@H]7O)[C@H]6O[C@@H]6O[C@H](CO)[C@@H](O)[C@H](O)[C@H]6O)[C@@](C)(CO)[C@@H]5CC[C@]43C)[C@@H]2C1` is reported as -14%.
For `COc1cc2c(c(OC)c1OC)C(=O)c1c(cc(C)c(O)c1OC)C2=O`, the inhibition was 1%.

Excerpt of the above (block 1):
For EPHA8 (Homo sapiens, UniProt P29322); enzyme activity; baseline: untreated control: remaining activity read 90.4%.
For LATS2 (Homo sapiens, UniProt Q9NRM7); enzyme activity; baseline: untreated control: remaining activity read 94.4%.
RPS6KA5 (Homo sapiens, UniProt O75582); enzyme activity; baseline: untreated control — remaining activity: 104%.
Cyclin-dependent kinase 19, with cyclin C (CDK19, Homo sapiens, UniProt Q9BWU1); enzyme activity; baseline: untreated control — remaining activity: 96.8%.
It gave 86.4% for remaining activity (PBK (Homo sapiens, UniProt Q96KB5); enzyme activity; baseline: untreated control).
MAP3K10 (Homo sapiens, UniProt Q02779); enzyme activity; baseline: untreated control — remaining activity: 88.5%.
For WNK1 (Homo sapiens, UniProt Q9H4A3); enzyme activity; baseline: untreated control: remaining activity read 87.3%.
It gave 98.1% for remaining activity (Cyclin-dependent kinase 2, with cyclin A (CDK2, Homo sapiens, UniProt P24941); enzyme activity; baseline: untreated control).
The remaining activity was 106% (GRK2 (Homo sapiens, UniProt P25098); enzyme activity; baseline: untreated control).
DCLK2 (Homo sapiens, UniProt Q8N568); enzyme activity; baseline: untreated control — remaining activity: 105%.
